Measured values gathered from unrelated publications.
Each line is one published result; not all experiments were run side by side. ± gives the spread as reported. Ends that are not written are not given here.

| Substance | assay | test system | conditions | quantity | value |
| --- | --- | --- | --- | --- | --- |
| CSCC[C@H](NC(=O)[C@H](CC(C)C)NC(=O)[C@H](Cc1c[nH]cn1)NC(=O)CNC(=O)[C@@H](NC(=O)[C@H](C)NC(=O)[C@H](Cc1c[nH]c2ccccc12)NC(=O)[C@H](CCC(N)=O)NC(=O)CCCCCNC(=O)[C@H](CCC(=O)NCCCC[C@@H]1NC(=O)[C@@H](Cc2ccc(O)cc2)NC(=O)[C@H](CC(=O)O)NC(=O)CNC(=O)[C@H](CCCNC(=N)N)NC1=O)NC(=O)CN1CCN(CC(=O)O)CCN(CC(=O)O)CC1)C(C)C)C(N)=O [copper-64 labelled] | – | ICR SCID mouse, female, liver | intravenous, 750 kBq, 24 h | tissue uptake | 1.24 ± 0.23 %ID/g |
| COc1cccc2c1C(=O)c1c(O)c3c(c(O)c1C2=O)C[C@@](O)(C(=O)CO)C[C@@H]3O[C@H]1C[C@H](NC(=O)[C@@H]2CCCN2C(=O)CN)[C@H](O)[C@H](C)O1 | – | mouse, E0771 tumour-bearing, heart | intravenous, 92 µmol/kg PhAc-ALGP-Dox | terminal half-life | 420 min |
| Insulin human | ELISA | rat, striatum | intranasal, 20 µg per nostril, 15 min | concentration | 198 ± 101 pg/mg tissue |
| KCNTATCATQRLANFLVHSSNNFGPILPPTNVGSNTY (Pramlintide; not fully specified (C-terminus, bridges); cysteine pairing not given here; sequence looked up) | – | peptide, obese or overweight humans | dose not given, through week 20, ITT | withdrawal due to adverse event | 5% |
| CC(C)[C@H](NC(=O)[C@@H]1CCCN1C(=O)[C@H](CCCNC(=N)N)NC(=O)[C@H](CS)NC(=O)[C@H](Cc1c[nH]c2ccccc12)NC(=O)[C@H](CCCNC(=N)N)NC(=O)[C@@H](Cc1ccccc1)NC(=O)[C@H](Cc1c[nH]cn1)NC(=O)[C@H](CCC(=O)O)NC(=O)[C@H](CS)NC(=O)[C@H](CS)NC(=O)[C@H](CCCCN)NC(=O)[C@@H]1CC(=O)N[C@@H](CCCNC(=N)N)C(=O)N[C@@H](C)C(=O)N[C@@H](CC(=O)O)C(=O)N[C@H](Cc2ccc(O)cc2)C(=O)N1)C(N)=O [technetium-99m labelled] | – | C57 mice, bladder | iv, 0.037 MBq, 0.5 h | tissue uptake | 30.9 ± 5.12 %ID |
| CC(C)[C@H](NC(=O)[C@@H]1CCCN1C(=O)[C@H](CCCNC(=N)N)NC(=O)[C@H](CS)NC(=O)[C@H](Cc1c[nH]c2ccccc12)NC(=O)[C@H](CCCNC(=N)N)NC(=O)[C@@H](Cc1ccccc1)NC(=O)[C@H](Cc1c[nH]cn1)NC(=O)[C@H](CCC(=O)O)NC(=O)[C@H](CS)NC(=O)[C@H](CS)NC(=O)[C@H](CCCNC(=N)N)NC(=O)[C@@H]1CC(=O)N[C@@H](CCCNC(=N)N)C(=O)N[C@@H](C)C(=O)N[C@@H](CC(=O)O)C(=O)N[C@H](Cc2ccc(O)cc2)C(=O)N1)C(N)=O [technetium-99m labelled] | – | C57 mouse, intestine | intravenous, 0.037 MBq, 0.5 h | tissue uptake | 2.53 ± 0.18 %ID |
| insulin degludec | – | human, moderate hepatic impairment, serum | subcutaneous, 0.4 U/kg single dose | AUC(0-120 h) | 88.9 nM·h |
| insulin lispro | – | human, plasma | subcutaneous pump | time to 95% clearance | 6.3 h |

Excerpt of the above:
| Substance | assay | test system | conditions | quantity | value |
| --- | --- | --- | --- | --- | --- |
| COc1cccc2c1C(=O)c1c(O)c3c(c(O)c1C2=O)C[C@@](O)(C(=O)CO)C[C@@H]3O[C@H]1C[C@H](NC(=O)[C@@H]2CCCN2C(=O)CN)[C@H](O)[C@H](C)O1 | – | mouse, E0771 tumour-bearing, heart | intravenous, 92 µmol/kg PhAc-ALGP-Dox | terminal half-life | 420 min |
